Results from different studies.
± marks the error that the study gave.

CC(C)c1cccc(C(C)C)c1N1CCN(c2c(C(C)C)cccc2C(C)C)C1=[Se].[Cl][Ag]
IC50 (PSN1; cell growth or viability, MTT; 72 h): 5.1 µM

CCNC(=O)OCc1c(COC(=O)NCC)c(-c2ccc(OC)cc2)n2c1Cc1ccccc1-2
IC50 (PC-9; cell growth or viability, resazurin; 72 h): 82.7 µM

COC(C)(C)C(O)COc1c2ccoc2cc2oc(=O)ccc12 (stereo not drawn)
IC50 (L5178Y; cell growth or viability, MTT; 72 h): 35.9 µM

COc1ccc(-c2cnc3[nH]c4ccc(/C=C/c5ccccc5)cc4c3c2)cc1
IC50 (parental Ba/F3 (IL-3 dependent); cell proliferation, [3H]-thymidine incorporation): 7 µM

N=C(N/N=C/c1cccs1)N/N=C/c1cccs1
IC50 (PANC-1; cell growth or viability, crystal violet; 72 h): 50.1 µM

CC(C)=CCc1c2c(c(O)c3c(=O)c(-c4ccc(O)cc4)coc13)C=CC(C)(C)O2
IC50 (MDA-MB-231, Huh-7, KKU100, NHDF cells; cell viability, MTT; 24 h): 13.9 to 30.9 µM

COc1cc(-c2nc3ccc(C(=O)NCCCN4CCN(c5ccccn5)CC4)cc3n2C2CCC2)cc(OC)c1OC
IC50 (293 T-BRE-Luc; reporter gene, inhibitor; 6 h, together with: BMP6-induced BMP6 500 ng/mL): 0.97 µM

CCC(C(=O)O)C1CCC(C)C(C(C)C(O)C(C)C(=O)C(CC)C2OC3(C=CC(NCc4cn(CSc5ccccc5)nn4)C4(CCC(C)(C5CCC(O)(CC)C(C)O5)O4)O3)C(C)CC2C)O1 (stereo not drawn)
IC50 (HMLER CD24low/CD44high; cell proliferation; 72 h): 0.03 ± 0.004 µM

CC(C)=CCc1c(OCC2OC2(C)C)ccc2ccc(=O)oc12 (stereo not drawn)
IC50 (COLO 320 multidrug-resistant; cell growth, MTT; 72 h): 47.9 ± 1.11 µM

Cc1nc(Nc2ncc(C(=O)Nc3c(C)cccc3Cl)s2)cc(N2CCN(CCOC(=O)[C@@H](N)CS)CC2)n1
IC50 (BV-173; cell growth or viability, MTT; 72 h): 0.00133 µM

Cc1c(C)n(-c2c(C(C)C)cccc2C(C)C)c(=[Se])n1-c1c(C(C)C)cccc1C(C)C.[Cl][Ag]
IC50 (H157 spheroids; acid phosphatase; 72 h, 3D spheroid): 11.4 ± 4.6 µM

CC(C)(C)c1cc(=O)n2ncc(-c3ccc(F)cc3)c2[nH]1
IC50 (SW620 cells; colony formation): 0.34 µM

COC(=O)[C@H]1[C@H]2C[C@H]3O[C@@]4(CCN3C[C@H]2C[C@@H](OC(=O)c2cc(OC)c(OC)c(OC)c2)[C@@H]1OC)C(=O)Nc1cc(OC)c(Br)cc14
IC50 (SU-DHL-4; cell growth or viability, trypan blue; 72 h): 12.6 µM

Cc1cc(C)c(-n2c3c([n+](-c4c(C)cc(C)cc4C)[c]2[Au-][Cl])-c2cccc4cccc-3c24)c(C)c1
IC50 (PSN1; cell growth or viability, MTT; 72 h): 14 µM

O=[N+]([O-])c1ccc(/N=N/c2ccc(O)c(O)c2)cc1
IC50 (patient-derived fibroblasts; cell growth, PrestoBlue; 72 h): 9.9 µM

N#Cc1c(-c2cccs2)cc(-c2cccc3ccccc23)n2c(Cc3ccccc3)nnc12
IC50 (RKOp27; cell growth or viability, MTT; 72 h): 0.736 µM

CC(=O)OC[C@H]1O[C@@H](NC(=O)/C=C/c2ccc(C(C)C)cc2)[C@H](OC(C)=O)[C@@H](OC(C)=O)[C@@H]1OC(C)=O
IC50 (L1210; cell growth or viability; 48 h): 110 µM

Cc1cc(C)c([N+]#[C][Pd-]([Cl])([Cl])=[C](Nc2cccc(CN[C](NC(C)(C)C)=[Au][Cl])c2)Nc2c(C)cc(C)cc2C)c(C)c1
IC50 (OVCAR-3; cell growth or viability): > 100 µM

COC(=O)[C@H]1[C@H]2C[C@H]3O[C@@]4(CCN3C[C@H]2C[C@@H](OC(=O)c2cc(OC)c(OC)c(OC)c2)[C@@H]1OC)C(=O)Nc1cc(OC)c(-c2ccc(C(C)(C)C)cc2)cc14
IC50 (SU-DHL-4; cell growth or viability, trypan blue; 72 h): 15.9 µM

COCCOc1ccc(-c2ccc3[nH]c4ncc(/C=C/c5ccccc5)cc4c3c2)cc1
IC50 (parental Ba/F3 (IL-3 dependent); cell proliferation, [3H]-thymidine incorporation): > 10 µM

O=c1ccn([C@@H]2O[C@H](CSSC[C@H]3O[C@@H](n4ccc(=O)[nH]c4=O)[C@H](O)[C@@H](F)[C@@H]3O)[C@@H](O)[C@H](F)[C@H]2O)c(=O)[nH]1
IC50 (L1210; cell growth or viability): 302 µM

CC(=O)OC[C@H]1O[C@@H](Oc2ccc(C#[C][Pt+])cc2)[C@H](OC(C)=O)[C@@H](OC(C)=O)[C@@H]1OC(C)=O.O=S(=O)([O-])C(F)(F)F.c1ccc(-c2cccc(-c3ccccn3)n2)nc1
IC50 (CCD 19Lu; cell growth or viability; 72 h): > 100 µM

COc1cccc(-c2ccc(Nc3ccc(CN(C)C)cc3)c(OC)c2F)c1
IC50 (SNU1; HTRF, refers to: total Erk): > 1000 µM

c1n[nH]cc1-c1nc2ccc3[nH]ncc3c2c2c1CCCC2
IC50 (Molm13 resistant FLT3-ITD D835Y; cell growth; 72 h): 0.0402 µM

N=C(N)NCCC[C@@H]1NC(=O)[C@H](CCCCN)NC(=O)[C@@H](Cc2ccccc2)NC(=O)[C@H](CC(=O)O)NC(=O)CNC1=O
IC50 (A2780 and OVCAR-3; cell growth): 4 to 7 µM

CCCC(CCC)C(=O)[O][Pt]([NH2])([NH2])([Cl])([Cl])[O]C(=O)C(Cl)Cl
IC50 (PSN1; cell growth or viability, MTT; 72 h): 0.61 µM

CC1CCc2c(c(-c3c[nH]nc3C(F)(F)F)nc3ccc4[nH]ncc4c23)C1 (stereo not drawn)
IC50 (Molm13 resistant FLT3-ITD D835Y; cell growth; 72 h): 0.0207 µM

CCCCN(C)C(=S)SC[C@@H]1C(=O)O[C@H]2[C@H]1CC/C(C)=C/CC[C@@]1(C)O[C@@H]21
IC50 (KG-1a; cell growth or viability, MTT; 72 h): 15.3 µM

CC(=O)NCCCN(C)CCCNc1cccc2c1C(=O)c1cccc(NCCCN(C)CCCNC(C)=O)c1C2=O
IC50 (HSC-2; cell growth or viability, CCK-8; 48 h): 0.5 µM

Cc1ncsc1-c1ccc(C(CO)NC(=O)C2CC(O)CN2C(=O)C(C(C)C)n2cc(-c3ccc(COc4c(-c5c(C)c(F)cc6[nH]ncc56)c(C5CC5)cc5c(N6CC7CC6CN7)nc(OC6CCOCC6)nc45)cc3)nn2)cc1 (stereo not drawn)
IC50 (HT-29 (KRAS wild type); cell growth, CellTiter-Glo; 144 h, 3D culture): > 10 µM

CC(C)c1cccc(C(C)C)c1N=[C](NCc1ccc(N)cc1)[AuH][Cl]
IC50 (OVCAR-3; cell growth or viability): > 100 µM

CCc1ccc([C@H](C)CC(=O)NC(=O)N[C@@H]2O[C@H](COC(C)=O)[C@@H](OC(C)=O)[C@H](OC(C)=O)[C@H]2OC(C)=O)cc1
IC50 (L1210; cell growth or viability; 48 h): 71 µM

O=C(Nc1ncnc2c1ncn2[C@@H]1O[C@H](CO)[C@@H](O)[C@H](F)[C@H]1O)c1ccccc1
IC50 (L1210; cell growth or viability): ≥ 200 µM

COc1ccc(-n2c(-c3cccc(OC)c3O)nc(-c3ccccc3)c2-c2ccccc2)cc1OC
IC50 (human foreskin fibroblasts HFF; cell viability, colorimetric; 72 h): > 1000 µg/mL

COc1cc(-c2cc(=O)c3c(O)cc(OC4OC(COC5OC(C)C(O)C(O)C5O)C(O)C(O)C4O)cc3o2)ccc1O (stereo not drawn)
IC50 (CEM/ADR5000 P-gp overexpressing; cell viability, resazurin reduction; 72 h): > 100 µM

CC(C)c1cccc(C(C)C)c1[N+]#[C][Pd-]([Cl])([Cl])=[C](Nc1ccc(CN[C](NC(C)(C)C)=[Au][Cl])cc1)Nc1c(C(C)C)cccc1C(C)C
IC50 (OVCAR-3; cell growth or viability): > 100 µM

C[C@@H]1Cc2c([nH]c3ccccc23)[C@@H](c2c(F)cc(/C=C/C(=O)O)cc2F)N1C12CC(C1)C2
IC50 (MCF7; cell growth or viability, ATP luminescence; 6 days): 0.0004 µM

O=C1C=C2CC[C@@H](NC(=O)OCc3ccccc3)CC2C(=O)C1 (stereo partly drawn)
IC50 (rat Synovial cell; cell growth or viability, CCK-8; 48 h): 2.68 µM

COC1CCC(Nc2nc(-c3nccn3C)nc3sc(-c4ccn(C)n4)c(-c4ccccc4)c23)C1 (stereo not drawn)
IC50 (NCI-H1975 (KRAS wild type); Western blot, refers to: phospho-Akt; 6 h, together with: EGF 15 min): ~10 µM

CC(C)c1cccc(C(C)C)c1-n1c(Cl)c(Cl)n(-c2c(C(C)C)cccc2C(C)C)c1=[Se].[Cl][Au]
IC50 (PSN1; cell growth or viability, MTT; 72 h): 0.9 µM

Cc1cc(C)c([N+]#[C][Pt-]([Cl])([Cl])=[C](Nc2cccc(CN[C](NC(C)(C)C)=[Au][Cl])c2)Nc2c(C)cc(C)cc2C)c(C)c1
IC50 (OVCAR-3; cell growth or viability): > 100 µM

CC(C)Cc1ccc(C(C)C(=O)[O][Pt]([NH2])([NH2])([Cl])([Cl])[O]C(=O)CCCc2ccccc2)cc1 (stereo not drawn)
IC50 (2008 cisplatin-sensitive; cytotoxicity, MTT; 72 h): 0.89 ± 0.19 µM

[Cl][Au].[Se]=c1n(C23CC4CC(CC(C4)C2)C3)ccn1C12CC3CC(CC(C3)C1)C2
IC50 (PSN1; cell growth or viability, MTT; 72 h): 3.1 µM

[NH2][Pt]1([NH2])([Cl])([O]C(=O)C(F)(F)F)[O]C(=O)C2(CC(=O)C2)C(=O)[O]1
IC50 (BGC803; cell growth or viability, MTT): 14.1 µM

Cl.[Cl][Ru-]1[S+]=C(NC2CCCCC2)N[N+]1=Cc1ccc(N(c2ccccc2)c2ccccc2)cc1.c1ccccc1
IC50 (HeLa S3; cytotoxicity, MTT; 24 h): > 100 µM

C/C1=C\CC[C@@]2(C)O[C@H]2[C@H]2OC(=O)[C@@H](CSC(=S)N(C)Cc3cccnc3)[C@@H]2CC1
IC50 (KG-1a; cell growth or viability, MTT; 72 h): 6.4 µM

CC(=O)OC[C@H]1O[C@@H](NC(=O)NC(=O)/C=C/c2ccc(C(C)C)cc2)[C@H](OC(C)=O)[C@@H](OC(C)=O)[C@@H]1OC(C)=O
IC50 (L1210; cell growth or viability; 48 h): 24 µM

CN(C)c1ccc(/C=C2\Oc3cc(O)ccc3C2=O)cc1
IC50 (PC-9; cell growth or viability, MTT; 72 h): 14.1 µM

C(=C/c1ccccc1)/c1ccccc1
IC50 (cord blood CD34+ cells; cell proliferation, CellTiter-Glo; 24 h): > 500 µM

Cn1ccn(N=Cc2ccccc2SSc2ccccc2C=Nn2ccn(C)c2=S)c1=S
IC50 (breast, ovarian, colorectal cancer cells; MTT; 72 h, all cell lines of panel): < 1 µM

CC(C)c1cccc(C(C)C)c1[N+]#[C][Pt-]([Cl])([Cl])=[C](Nc1ccc(CN[C](NC(C)(C)C)=[Au][Cl])cc1)Nc1c(C(C)C)cccc1C(C)C
IC50 (OVCAR-3; cell growth or viability): > 100 µM

CC(C)c1cccc(C(C)C)c1-n1ccn(-c2c(C(C)C)cccc2C(C)C)c1=[Se].[Cl][Au]
IC50 (H157 spheroids; acid phosphatase; 72 h, 3D spheroid): 28.2 ± 5.2 µM

C/C1=C\CC[C@@]2(C)O[C@H]2[C@H]2OC(=O)[C@@H](CSC(=S)N3CCCCC3)[C@@H]2CC1
IC50 (KG-1a; cell growth or viability, MTT; 72 h): 9.1 µM

C=C(CO)C(=O)O[C@H]1CC(=C)[C@@H]2C[C@H](O)[C@](O)(CCl)[C@@H]2[C@H]2OC(=O)C(=C)C12 (stereo partly drawn)
IC50 (HEKa; cell growth or viability): 2.5 µg/mL

For quick reference, copied from above:
CCc1ccc([C@H](C)CC(=O)NC(=O)N[C@@H]2O[C@H](COC(C)=O)[C@@H](OC(C)=O)[C@H](OC(C)=O)[C@H]2OC(C)=O)cc1
IC50 (L1210; cell growth or viability; 48 h): 71 µM

O=C(Nc1ncnc2c1ncn2[C@@H]1O[C@H](CO)[C@@H](O)[C@H](F)[C@H]1O)c1ccccc1
IC50 (L1210; cell growth or viability): ≥ 200 µM

COc1ccc(-n2c(-c3cccc(OC)c3O)nc(-c3ccccc3)c2-c2ccccc2)cc1OC
IC50 (human foreskin fibroblasts HFF; cell viability, colorimetric; 72 h): > 1000 µg/mL

COc1cc(-c2cc(=O)c3c(O)cc(OC4OC(COC5OC(C)C(O)C(O)C5O)C(O)C(O)C4O)cc3o2)ccc1O (stereo not drawn)
IC50 (CEM/ADR5000 P-gp overexpressing; cell viability, resazurin reduction; 72 h): > 100 µM

CC(C)c1cccc(C(C)C)c1[N+]#[C][Pd-]([Cl])([Cl])=[C](Nc1ccc(CN[C](NC(C)(C)C)=[Au][Cl])cc1)Nc1c(C(C)C)cccc1C(C)C
IC50 (OVCAR-3; cell growth or viability): > 100 µM

C[C@@H]1Cc2c([nH]c3ccccc23)[C@@H](c2c(F)cc(/C=C/C(=O)O)cc2F)N1C12CC(C1)C2
IC50 (MCF7; cell growth or viability, ATP luminescence; 6 days): 0.0004 µM

O=C1C=C2CC[C@@H](NC(=O)OCc3ccccc3)CC2C(=O)C1 (stereo partly drawn)
IC50 (rat Synovial cell; cell growth or viability, CCK-8; 48 h): 2.68 µM

COC1CCC(Nc2nc(-c3nccn3C)nc3sc(-c4ccn(C)n4)c(-c4ccccc4)c23)C1 (stereo not drawn)
IC50 (NCI-H1975 (KRAS wild type); Western blot, refers to: phospho-Akt; 6 h, together with: EGF 15 min): ~10 µM
